Results collected from several papers.
Compare with care: the assays were run in different laboratories. “And” joins repeats or separate records; there may be more than shown. ± gives the spread as reported. Values after ≈ are worked out from the molar mass of the structure shown.

Molecule = O=C(N/N=C1\C(=O)Nc2ccc([N+](=O)[O-])cc21)N/N=C1\C(=O)Nc2ccc([N+](=O)[O-])cc21; target or system = Influenza A virus H3N2; assay = viral replication, MTS; test system = MDCK; measurement = EC50; value = 33 ± 1.7 µM
Molecule = N#CCNC(=O)c1cnccc1C(F)(F)F; target or system = mAb-19F2 (BALB/c mouse monoclonal antibody); assay = antibody binding, indirect competitive ELISA; measurement = IC50; value = > 1 mg/L
Molecule = COC[C@H](NC(C)=O)C(=O)NCc1ccccc1; target or system = voltage-gated sodium channel; assay = peak sodium current, inhibitor, whole-cell patch clamp; test system = CAD; setting = 0 mV from -80 mV holding; measurement = IC50; value = > 500 µM
Molecule = C[C@H](NC(=O)Cc1cc(F)cc(F)c1)C(=O)N[C@H]1N=C(c2ccccc2)c2ccccc2N(C)C1=O; target or system = γ-secretase; assay = inhibitor, microdialysis; test system = J20 hAPP transgenic mice, 24 months, hippocampal interstitial fluid; setting = intraperitoneal, 3 mg/kg, first 3 h; scale = baseline: pre-injection level; measurement = ISF Aβ38 reduction; value = ~60%
Molecule = CP(=O)(O)CCC(N)C(=O)O (stereo not shown); target or system = Euphorbia heterophylla; setting = 500 g/ha, 13 days, EPHHL, post-emergence spray; scale = baseline: untreated (0%), complete kill (100%); measurement = herbicidal activity; value = 100%
Molecule = O=S(=O)(CC1CS1)c1ccc(Oc2ccccc2)cc1 (stereo not shown); test system = apoE4-TR mouse; setting = intraperitoneal, 25 mg/kg, 10 min, with: intracranial human Aβ(1-42); scale = baseline: vehicle; measurement = fold increase in plasma Aβ; value = 2 fold
Molecule = NNC(=O)Cn1c2ccccc2c2cn[nH]c(=O)c21; target or system = MCF7; setting = 5 µM, 48 h; scale = baseline: β-actin normalised; measurement = MDM2 mRNA fold change; value = 6.01
Molecule = CNC(C)Cc1ccc2c(c1)OCO2 (racemic); assay = Drug Effects Questionnaire, item: Dislike Drug; test system = human; setting = oral, 1.5 mg/kg, mean over session, unit not given; scale = baseline: pre-dose baseline; measurement = subjective drug effect rating; value = 15.3
Molecule = C[C@H](CCC1=NC(C)(C)CO1)[C@H]1CC[C@H]2[C@@H]3[C@@H](O)C[C@@H]4C[C@H](O)CC[C@]4(C)[C@H]3CC[C@]12C; target or system = Clostridioides difficile; assay = spore germination, OD600; test system = NAP1; setting = 20 min, with: 2000 µM taurocholate; measurement = minimum concentration for complete inhibition; value = 50 µM
Molecule = O=C1/C(=N\NC(=S)NN=Cc2ccccc2)c2ccccc2N1Cc1ccccc1; target or system = Influenza A virus H3N2; assay = viral replication, MTS; test system = MDCK; measurement = EC50; value = > 100 µM
Molecule = CCC[C@H](C(=O)c1ccc2c(c1)OCO2)N1CCCC1; target or system = anti-α-PVP/MDPV polyclonal antibody (rat); assay = binding, competitive radioimmunoassay; test system = rat serum, 11 weeks post-immunisation; setting = with: tritium-labelled drug; measurement = IC50; value = 0.0039 ± 0.0008 µM
Molecule = O=C(N/N=C1\C(=O)Nc2ccc(Cl)cc21)N/N=C1\C(=O)Nc2ccc(Cl)cc21; target or system = Influenza A virus H3N2; assay = viral replication, visual CPE score; test system = MDCK; measurement = EC50; value = > 100 µM
Molecule = Cc1c(Cc2ccc(Cl)c(Cl)c2)c(=O)n2c([nH]c3ccccc32)c1C#N; target or system = Vero; assay = cell growth or viability; measurement = IC50; value = 4 mg/L
Molecule = CC(C)C1NC(=O)C(C(=O)NC(C(=O)NC2C(=O)N3C2SC(C)(C)C3C(=O)O)c2ccccc2)=C1O (stereo not shown); target or system = Escherichia coli; assay = broth microdilution; test system = BW25113, Mueller-Hinton broth; setting = with: CCCP 50 µg/mL; measurement = MIC; value = 25 mg/L (≈ 48.4 µM)
Molecule = CCC(CC)O[C@@H]1C=C(C(=O)O)C[C@H](N)[C@H]1NC(C)=O; target or system = Influenza A virus H3N2; assay = viral replication, MTS; test system = MDCK; measurement = EC50; value = 5.45 ± 4.05 µM
Molecule = Cc1ccc(-c2ncn(-c3ccc(Nc4nccc(-c5cccc(N6CCOCC6)c5)n4)cc3)n2)cn1; target or system = INS1 cells; assay = c-jun phosphorylation, inhibitor; setting = with: streptozotocin; measurement = IC50; value = ~0.2 µM
Molecule = Cc1ccc2c(c1)/C(=N/NC(=O)N/N=C1\C(=O)Nc3ccc(C)cc31)C(=O)N2; target or system = influenza A virus; assay = cytopathic effect, MTS; test system = MDCK, H1N1; measurement = EC50; value = > 20 µM
Molecule = Cc1c(Cc2ccc(Cl)cc2)c(=O)n2c([nH]c3ccccc32)c1C#N; target or system = Vero; assay = cell growth or viability; measurement = IC50; value = 8 mg/L
Molecule = O=c1[nH]c(=O)c2[nH]c(=O)[nH]c2[nH]1; target or system = MftR R89N (Burkholderia thailandensis); setting = concentration not given; measurement = melting temperature; value = 55.9 °C and 63 °C
Molecule = leucinostatin F; target or system = MDA-MB-453; assay = sulforhodamine B; setting = 48 h, LAR subtype TNBC; measurement = GI50; value = 0.0026 ± 0.0006 µM
Molecule = CC(C)c1ccc2c(c1)CC[C@H]1[C@](C)(CN)CCC[C@]21C; target or system = FF2441; assay = cell growth or viability, MTS; setting = 24 h; measurement = IC50; value = 9.57 µM
Molecule = CC(N)C12CC3CC(CC(C3)C1)C2 (stereo not shown); target or system = influenza A virus; assay = cytopathic effect, MTS; test system = MDCK, H1N1; measurement = EC50; value = > 200 µM
Molecule = C=CC=C[C@@H]1CC2=CC(=O)CC[C@]2(C)[C@H]2CC[C@]3(C)[C@@H](O)CC[C@H]3[C@H]12; target or system = LNCaP; assay = cell growth, MTT; setting = 48 h; measurement = IC50; value = 28.8 µM
Molecule = CCNC(=O)[C@H]1O[C@@H](n2cnc3c(N)ncnc32)[C@H](O)[C@@H]1O; target or system = HL-1, human A3AR-transfected; assay = protection from cell death, LDH release; setting = 4 h, pretreatment 1 h, with: H2O2 750 µM; measurement = IC50; value = 3.9 ± 1.8 µM
Molecule = leucinostatin A2; target or system = MDA-MB-453; assay = sulforhodamine B; setting = 48 h, LAR subtype TNBC; measurement = GI50; value = 0.0079 ± 0.0014 µM
Molecule = CC(=O)N[C@@H](CC(C)C)C(=O)N1CCC[C@H]1C(=O)N[C@@H](Cc1ccc(O)cc1)C(=O)N1CCC[C@H]1C(=O)N[C@@H](CCCCN)C(N)=O; assay = DSC; test system = SOPC/cholesterol 6/4 bilayers; setting = 15 mol%, pH 7.40; measurement = transition enthalpy; value = 1.67 kJ/mol
Molecule = NC12CC3CC(CC(C3)C1)C2; target or system = Influenza A virus H3N2; assay = viral replication, visual CPE score; test system = MDCK; measurement = EC50; value = 0.9 µM
Molecule = N#CN=C1SCCN1Cc1ccc(Cl)nc1; target or system = mAb-19F2 (BALB/c mouse monoclonal antibody); assay = antibody binding, indirect competitive ELISA; measurement = IC50; value = > 1 mg/L
Molecule = NC12CC3CC(CC(C3)C1)C2; target or system = dendritic cells; assay = flow cytometry; setting = 10 µg/mL, 24 h; scale = baseline: untreated cells; measurement = CD40 expression; value = increased
Molecule = COc1ccc2c(c1)[nH]c1c(C)nccc12; target or system = hedgehog pathway; assay = alkaline phosphatase activity, inhibitor; test system = C3H10T1/2; setting = 5 days, with: Shh; measurement = IC50; value = 14.1 µM
Molecule = C#Cc1ccc2c(c1)C(c1ccccn1)=NCc1c(-c3cnco3)ncn1-2; assay = writhing reduction; test system = mouse, acetic acid writhing; setting = subcutaneous, with: 0.6% acetic acid i.p.; scale = baseline: vehicle; measurement = effective dose; value = 5.6 mg/kg and 10 mg/kg

Some of these lines once more:
Molecule = C[C@H](CCC1=NC(C)(C)CO1)[C@H]1CC[C@H]2[C@@H]3[C@@H](O)C[C@@H]4C[C@H](O)CC[C@]4(C)[C@H]3CC[C@]12C; target or system = Clostridioides difficile; assay = spore germination, OD600; test system = NAP1; setting = 20 min, with: 2000 µM taurocholate; measurement = minimum concentration for complete inhibition; value = 50 µM
Molecule = O=C1/C(=N\NC(=S)NN=Cc2ccccc2)c2ccccc2N1Cc1ccccc1; target or system = Influenza A virus H3N2; assay = viral replication, MTS; test system = MDCK; measurement = EC50; value = > 100 µM
Molecule = NC12CC3CC(CC(C3)C1)C2; target or system = dendritic cells; assay = flow cytometry; setting = 10 µg/mL, 24 h; scale = baseline: untreated cells; measurement = CD40 expression; value = increased
Molecule = CC(N)C12CC3CC(CC(C3)C1)C2 (stereo not shown); target or system = influenza A virus; assay = cytopathic effect, MTS; test system = MDCK, H1N1; measurement = EC50; value = > 200 µM
Molecule = NNC(=O)Cn1c2ccccc2c2cn[nH]c(=O)c21; target or system = MCF7; setting = 5 µM, 48 h; scale = baseline: β-actin normalised; measurement = MDM2 mRNA fold change; value = 6.01
